Measured values of several laboratories.
Each numbered part is a random draw from the data of one study; scales do not carry over between parts. Values joined by “and” are separate records of one study, mostly repeats; a detail may differ.
UniProt Q9H422, sequence (whole entry, looked up): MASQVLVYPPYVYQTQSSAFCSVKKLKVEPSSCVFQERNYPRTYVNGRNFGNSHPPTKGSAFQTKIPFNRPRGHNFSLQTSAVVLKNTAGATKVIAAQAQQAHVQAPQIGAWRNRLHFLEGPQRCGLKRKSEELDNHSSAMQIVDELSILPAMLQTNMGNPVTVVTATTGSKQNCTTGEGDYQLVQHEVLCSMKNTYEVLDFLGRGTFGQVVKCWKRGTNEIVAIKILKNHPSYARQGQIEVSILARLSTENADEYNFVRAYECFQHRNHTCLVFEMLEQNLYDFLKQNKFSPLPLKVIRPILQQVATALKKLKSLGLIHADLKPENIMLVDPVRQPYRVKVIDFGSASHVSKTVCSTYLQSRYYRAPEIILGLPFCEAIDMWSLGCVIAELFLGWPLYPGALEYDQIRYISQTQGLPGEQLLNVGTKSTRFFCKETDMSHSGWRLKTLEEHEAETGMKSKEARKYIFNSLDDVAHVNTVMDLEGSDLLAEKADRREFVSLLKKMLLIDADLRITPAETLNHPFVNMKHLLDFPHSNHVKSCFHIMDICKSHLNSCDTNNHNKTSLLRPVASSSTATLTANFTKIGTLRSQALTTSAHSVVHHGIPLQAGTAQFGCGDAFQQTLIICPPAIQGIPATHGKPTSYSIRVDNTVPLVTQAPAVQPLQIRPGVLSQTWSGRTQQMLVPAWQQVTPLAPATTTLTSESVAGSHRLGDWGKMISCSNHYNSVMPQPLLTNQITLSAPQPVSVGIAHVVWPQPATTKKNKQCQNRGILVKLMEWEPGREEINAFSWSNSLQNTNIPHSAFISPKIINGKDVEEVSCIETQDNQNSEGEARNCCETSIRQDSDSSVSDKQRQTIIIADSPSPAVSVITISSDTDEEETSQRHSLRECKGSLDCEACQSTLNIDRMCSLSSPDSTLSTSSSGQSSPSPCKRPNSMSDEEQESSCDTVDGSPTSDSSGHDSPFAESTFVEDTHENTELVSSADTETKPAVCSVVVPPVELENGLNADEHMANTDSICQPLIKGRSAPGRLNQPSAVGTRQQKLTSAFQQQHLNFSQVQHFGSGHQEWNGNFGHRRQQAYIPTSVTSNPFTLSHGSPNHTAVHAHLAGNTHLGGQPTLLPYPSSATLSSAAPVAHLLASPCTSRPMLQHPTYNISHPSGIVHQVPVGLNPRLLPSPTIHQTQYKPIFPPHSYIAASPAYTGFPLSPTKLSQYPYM
UniProt P07948, sequence (whole entry, looked up): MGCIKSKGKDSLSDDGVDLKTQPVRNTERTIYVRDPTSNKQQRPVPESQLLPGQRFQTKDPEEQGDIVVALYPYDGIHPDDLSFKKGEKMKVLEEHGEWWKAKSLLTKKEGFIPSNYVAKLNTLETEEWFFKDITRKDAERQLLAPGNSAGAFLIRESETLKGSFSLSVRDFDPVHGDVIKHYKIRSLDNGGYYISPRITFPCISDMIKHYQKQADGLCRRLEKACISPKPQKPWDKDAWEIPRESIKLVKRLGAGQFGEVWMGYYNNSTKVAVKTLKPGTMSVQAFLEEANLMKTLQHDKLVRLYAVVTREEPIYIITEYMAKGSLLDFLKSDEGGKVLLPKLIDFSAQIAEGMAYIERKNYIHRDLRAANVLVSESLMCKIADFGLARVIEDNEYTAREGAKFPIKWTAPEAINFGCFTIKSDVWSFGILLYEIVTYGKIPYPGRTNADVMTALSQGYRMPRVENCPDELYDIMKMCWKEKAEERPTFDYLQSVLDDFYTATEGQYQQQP
UniProt Q8IW41, sequence (whole entry, looked up): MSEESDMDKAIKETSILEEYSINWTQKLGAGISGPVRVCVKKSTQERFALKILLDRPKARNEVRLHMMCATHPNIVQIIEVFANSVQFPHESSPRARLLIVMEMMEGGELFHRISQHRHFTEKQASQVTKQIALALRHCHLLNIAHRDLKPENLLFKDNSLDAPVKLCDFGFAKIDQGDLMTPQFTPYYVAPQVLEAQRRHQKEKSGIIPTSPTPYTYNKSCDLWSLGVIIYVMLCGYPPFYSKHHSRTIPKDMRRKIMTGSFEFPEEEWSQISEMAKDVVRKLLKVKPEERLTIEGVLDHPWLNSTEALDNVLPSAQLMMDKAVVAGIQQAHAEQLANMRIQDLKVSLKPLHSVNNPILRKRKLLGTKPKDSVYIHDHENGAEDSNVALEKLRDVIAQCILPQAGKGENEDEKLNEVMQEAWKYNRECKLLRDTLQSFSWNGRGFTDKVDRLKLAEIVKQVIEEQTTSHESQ
UniProt Q14012, sequence (whole entry, looked up): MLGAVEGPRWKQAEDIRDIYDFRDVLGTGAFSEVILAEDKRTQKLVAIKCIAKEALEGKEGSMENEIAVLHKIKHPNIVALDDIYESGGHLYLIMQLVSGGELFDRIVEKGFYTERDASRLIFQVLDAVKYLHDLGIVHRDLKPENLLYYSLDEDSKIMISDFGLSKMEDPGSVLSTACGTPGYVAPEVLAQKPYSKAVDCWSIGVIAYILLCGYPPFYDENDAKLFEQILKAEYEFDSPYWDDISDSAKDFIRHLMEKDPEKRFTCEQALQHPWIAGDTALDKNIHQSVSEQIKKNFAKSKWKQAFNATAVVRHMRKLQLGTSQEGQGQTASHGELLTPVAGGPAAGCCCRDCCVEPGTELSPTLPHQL
UniProt Q14164, sequence (whole entry, looked up): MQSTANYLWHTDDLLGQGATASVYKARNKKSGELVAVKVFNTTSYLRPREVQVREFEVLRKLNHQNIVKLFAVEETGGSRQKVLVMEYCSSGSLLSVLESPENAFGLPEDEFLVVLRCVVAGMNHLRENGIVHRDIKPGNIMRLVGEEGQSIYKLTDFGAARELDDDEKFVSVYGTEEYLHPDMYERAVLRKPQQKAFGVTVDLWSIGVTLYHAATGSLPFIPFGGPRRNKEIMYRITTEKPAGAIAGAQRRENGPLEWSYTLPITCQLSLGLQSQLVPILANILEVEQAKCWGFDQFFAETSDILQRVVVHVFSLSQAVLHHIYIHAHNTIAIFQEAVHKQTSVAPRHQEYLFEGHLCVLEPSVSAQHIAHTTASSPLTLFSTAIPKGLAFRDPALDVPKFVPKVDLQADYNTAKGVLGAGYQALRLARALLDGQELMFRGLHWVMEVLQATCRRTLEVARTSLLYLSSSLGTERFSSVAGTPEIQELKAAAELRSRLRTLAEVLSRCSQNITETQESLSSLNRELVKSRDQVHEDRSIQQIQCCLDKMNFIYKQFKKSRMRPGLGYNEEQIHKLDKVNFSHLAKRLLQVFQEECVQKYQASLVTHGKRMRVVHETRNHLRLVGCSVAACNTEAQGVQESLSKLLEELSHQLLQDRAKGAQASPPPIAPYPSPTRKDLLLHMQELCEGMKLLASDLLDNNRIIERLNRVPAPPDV

Study 1 — species: human; matrix: microsomes or S9; tested at: 2 µM; time: 0.5 h; quantity: remaining compound
Cc1c(O)ccc(C(=O)Cc2ccccc2F)c1O: 67.6%
COCCN(Cc1ccn(C)c(=O)c1)Cc1cccs1: 0.0748%
CC(C)Nc1ccnc(N2CCN(Cc3cccs3)C(CCO)C2)n1 (stereo not shown): 5.05%
Cn1c(/C=C2\SC(=O)NC2=O)cc2c1-c1ccccc1OC2: 21.3%
CCc1nc(-c2cccc(-c3noc(-c4ccc(Br)o4)n3)c2)cs1: 43.3%

Study 2 — observed: enzyme activity; action: inhibitor; tested at: 0.5 µM; reference: control; quantity: remaining activity
Target: Serine/threonine-protein kinase Nek11 (NEK11, Homo sapiens, UniProt Q8NG66)
UniProt Q8NG66, sequence (whole entry, looked up): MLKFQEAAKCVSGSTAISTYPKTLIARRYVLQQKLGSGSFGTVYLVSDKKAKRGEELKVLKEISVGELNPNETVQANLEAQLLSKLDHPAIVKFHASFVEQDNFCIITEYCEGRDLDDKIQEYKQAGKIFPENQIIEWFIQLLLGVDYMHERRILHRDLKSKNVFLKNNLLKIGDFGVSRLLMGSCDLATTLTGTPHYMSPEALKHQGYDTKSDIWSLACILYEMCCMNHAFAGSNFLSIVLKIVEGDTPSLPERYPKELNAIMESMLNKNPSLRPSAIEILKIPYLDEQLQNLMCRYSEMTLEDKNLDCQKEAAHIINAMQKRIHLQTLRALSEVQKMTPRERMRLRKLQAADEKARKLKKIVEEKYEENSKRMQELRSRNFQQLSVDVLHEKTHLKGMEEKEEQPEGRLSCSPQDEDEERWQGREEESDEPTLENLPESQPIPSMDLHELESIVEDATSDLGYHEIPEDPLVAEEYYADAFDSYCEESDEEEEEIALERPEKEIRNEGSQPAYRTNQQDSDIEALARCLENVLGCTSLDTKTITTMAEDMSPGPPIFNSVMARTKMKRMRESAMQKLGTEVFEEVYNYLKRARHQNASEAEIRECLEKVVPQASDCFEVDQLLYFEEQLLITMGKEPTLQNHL
O=C(Nc1cccc(Nc2cc(Nc3cccc(C(F)(F)F)c3)ncn2)c1)C1CC1: 94.3%
Cc1ccc(Nc2nccc(N(C)c3ccc4c(C)n(C)nc4c3)n2)cc1S(N)(=O)=O: 94.8%
COc1ccc(OC)c2c(=S)c3ccccc3[nH]c12: 130%
Nc1ncnc2n[nH]c(Nc3ccc(F)cc3)c12: 102%
COc1cc2ncnc(Nc3ccc(Oc4ccccc4)cc3)c2cc1OC: 74.8%
Cn1c2ccccc2c2c3c(c4c5ccccc5n(CCC#N)c4c21)CNC3=O: 110%
Nc1ccc2ncnc(NCCc3ccc(Oc4ccccc4)cc3)c2c1: 105%
CC(C)[C@H](CO)Nc1nc(Nc2cc(N)cc(Cl)c2)c2ncn(C(C)C)c2n1: 84.2%
COc1ccc(C(=O)Nc2sc3c(c2C(N)=O)CCCC3)cc1OC: 102%
COc1cc2nccc(Oc3ccc(NC(=S)NC(=O)c4ccccc4C)cc3)c2cc1OC: 96.7%
O=C(O)c1ccc2c3c1cccc3c(=O)n1c3ccccc3nc21: 83%
Cc1cccc(-c2[nH]c(C(C)(C)C)nc2-c2ccc3c(c2)OCO3)n1: 90.3%
CN(C)c1ccc(C=C2C(=O)Nc3ccccc32)cc1: 96.4%
NCCNc1ncc(C(N)=O)c(Nc2cccc(C(F)(F)F)c2)n1: 103%
OCC(O)CCON=C1C(c2c(O)[nH]c3ccccc23)=Nc2ccccc21 (stereo not shown): 92.2%

Study 3 — technique: competition with immobilised ligand; tested at: 1 µM; quantity: remaining binding
Compound: CS(=O)(=O)NCC[C@H](NC(=O)c1cncc2c1cnn2-c1ccc(F)cc1)c1ccnc(S(C)(=O)=O)c1
Homeodomain-interacting protein kinase 3 (HIPK3, Homo sapiens, UniProt Q9H422); cell-free assay: 100%
Tyrosine-protein kinase Lyn (LYN, Homo sapiens, UniProt P07948); cell-free assay: 100%
Inhibitor of nuclear factor kappa-B kinase subunit epsilon (IKBKE, Homo sapiens, UniProt Q14164); cell-free assay: 78%
Receptor-type tyrosine-protein kinase FLT3 (FLT3, Homo sapiens, UniProt P36888, ITD); cell-free assay: 92%
Myosin-IIIa (MYO3A, Homo sapiens, UniProt Q8NEV4); binding: 93%
Calcium/calmodulin-dependent protein kinase type 1 (CAMK1, Homo sapiens, UniProt Q14012); cell-free assay: 94%
MAP kinase-activated protein kinase 5 (MAPKAPK5, Homo sapiens, UniProt Q8IW41); cell-free assay: 100%

Study 4 — cell line: HEK293; technique: CellTiter-Glo; reference: vehicle; quantity: viability
SMILES: CC(C)C(=O)N1CCN(c2nc(OC[C@@H]3CCCN3C)nc3c2CCN(c2cccc4cccc(Cl)c24)C3)C[C@@H]1CC#N
5 µM: 58.7% and 48.5% and 56%
1.25 µM: 98.8% and 97.2% and 92.2%
20 µM: 22.4% and 19.9% and 21.4%
312 nM: 91% and 100% and 99.9%
